Assay results pooled from the literature.
Parts stem from different laboratories: compare values within a part only.

Series 1
Target: RNA binding protein fox-1 homolog 2, RRM domain, GST-SBP tag (RBFOX2, Homo sapiens, UniProt O43251-10, residues 100-194)
Method: RNA Bind-n-Seq
Form: RNA
Sample: in vitro
Tested at: 365 nM
Setting: natural RNA segment, single round, ends assumed
Reference: no-protein control
Direction: higher = stronger binding
Quantity: RBNS enrichment (R)
Shared flanks, not repeated: GGGAGUUCUACAGUCCGACGAUC … UGGAAUUCUCGGGUGCCAA
Residues (chain): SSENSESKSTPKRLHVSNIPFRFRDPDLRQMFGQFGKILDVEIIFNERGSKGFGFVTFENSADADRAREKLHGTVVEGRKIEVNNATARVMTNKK
CUCACUCCUGAGAGAUUUCUGCCUUCUGUGAGUUGGGUUAAAGCUCUGGAAUUAUCUACUAUCCCAAUCCACUACCCUCACCUGGCAAUAUUUGUCUGUUUUUGUUUGUU: 0.895
CAGGAGCCUAGUGCAGGGUGAACACGAAGCUGCUUGAGCAGCAGGAGGUGGCUGGACCAUCGUACCCACGUAACCUGCCCAGGACGAUGCCUCGCUGGGGCUGAGACUUU: 0.349
UUACACAGAUAGGCAGGCAGGGUGGCAGUCACCUCCCCUGUCCACGUGGAUCCAUCCCUGCCAUUGUGUGAGUCAGAGGGAUAGAUCUGAAGCCUGUGAAUGAUGUCUGG: 0.539
CUUUGCCUUCUGUUCUCCUCUCUAGCAUAAGACUUUGGCUUCUGCCUUAAGGUUUUCCUAAGGAAUUAACAGGUCUUUUCAUCUUGUAUAGUUUUUACAGUGUGAAUCCA: 0.228
CCCCCCUACACCAGCCAUAGGCCUGUUCUUUUUCUUCCUUCUGAAAACUGUGACCAGUUCAAAUUAUGACUCAGAACGUAGGGCCAGCACCAGCUACCUCUGCAGACUCC: 0.452
AGAACAUUGCCUUCCUCGUGCAGAGCUGGGGCUGCCAGCCUGAGCGGAGGCUCGGCCGUGGGCCGGGAGGCAGUGCUGAUCCGGCUGCUCCUCCAGCCCUUCAGACGAGA: 0.391
UCUGGGUGUUUGAGUUCCAAAAAGUGUGUGGUGUUUGUUCCUCCUCAUCCUCUUCUGAGACUGUUGAUUUUAAACACUUGAUUGUGAACGAAGAGCUUCUAUGAAAACCC: 0.412
AGAGUCUCCCCAGACCAAGGUCAGAAAGGAUGCCCAGAGGUUCCAAGAACAGAGCAACAGCAACGGAACGAUGCUUAGAAGCAAAGGAAAGGUCACUGAUGAGUCCGCAA: 0.221

Series 2
Target: Histone acetyltransferase KAT6A, winged helix 1, GST fusion (KAT6A, Homo sapiens, UniProt Q92794, residues 1-85)
Method: protein binding microarray
Form: double-stranded DNA, one strand shown
Sample: in vitro
Tested at: not given
Setting: 8-mer, flanks averaged, mean of 2 arrays, mostly near background
Reference: not given
Direction: higher = stronger binding
Quantity: E-score
Construct (chain): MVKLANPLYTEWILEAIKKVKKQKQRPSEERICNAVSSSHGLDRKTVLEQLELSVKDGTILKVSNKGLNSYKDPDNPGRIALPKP
ATTCAACC: -0.0564
GGAGGATA: -0.2
CCCCGGCC: 0.27
AATACAAA: -0.323
AACGCCCT: 0.0141
CGCCAGCA: 0.00137
ATCCCATC: -0.22
CCTGTAAA: -0.19
CAGCGGGA: 0.316
AGGGAACC: -0.0145
CGTGCGAG: 0.23
GATTTTAC: -0.137
ACAGTCCT: -0.269
AAGTCTAT: -0.266
TTGGGAAA: -0.235
AACTGTGG: -0.0684
AGAAGCGA: -0.0227
AGAGGGTC: -0.183
CTGCATCA: -0.232
ATCGGGGC: 0.207
CCCAATGA: -0.212
CAAGCCAA: -0.0639
CTTGGTCC: -0.136
ATGACTAC: -0.12
GAGCGTTA: 0.0494

Series 3
Target: Ras GTPase-activating protein-binding protein 1, RRM domain (G3BP1, Homo sapiens, UniProt Q13283)
UniProt Q13283, sequence (whole entry, looked up): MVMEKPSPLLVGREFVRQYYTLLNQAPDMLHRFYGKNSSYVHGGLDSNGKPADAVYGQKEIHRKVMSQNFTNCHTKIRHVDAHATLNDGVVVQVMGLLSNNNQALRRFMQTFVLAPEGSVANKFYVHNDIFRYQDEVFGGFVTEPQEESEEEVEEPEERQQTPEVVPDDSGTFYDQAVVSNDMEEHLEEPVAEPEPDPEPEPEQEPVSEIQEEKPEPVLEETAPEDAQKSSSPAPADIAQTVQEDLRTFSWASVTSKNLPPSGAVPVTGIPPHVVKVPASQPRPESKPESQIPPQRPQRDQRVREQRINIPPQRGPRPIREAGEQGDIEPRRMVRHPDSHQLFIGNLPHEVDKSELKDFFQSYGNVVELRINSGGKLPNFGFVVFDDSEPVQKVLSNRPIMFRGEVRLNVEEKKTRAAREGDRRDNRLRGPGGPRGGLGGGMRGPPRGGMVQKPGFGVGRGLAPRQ
Method: RNA Bind-n-Seq
Form: RNA
Sample: in vitro
Tested at: 1 µM
Setting: whole 134-nt RNA, ends assumed
Added: 150 mM KCl
Reference: input library
Direction: higher = stronger binding
Quantity: log2 enrichment
Shared flanks, not repeated: GGGAGUUCUACAGUCCGACGAUC … UGGAAUUCUCGGGUGUCAAGG
CAAGUCCUGUGCUACACAUCGUAUGUACCGAAUCGGGUUUUUGGGUGGGUUUGGGAAAGUAUUAUGUUACGCCGUUCGGAUCUGCACUUC: 0.528
GCAGGAAGUAAAAACAGAUGGAAAUGCUUCGGAUAGUGGCAGGGGUGGGGGUUGCUAAGGAAAGGGUGGGAUGGGAGUGGGUAAAGAGUU: 0.904
GUCCUGUGCUACACAUCGUAUGUACCGAAUCGGCCCCCCGGGCCCCCCGGCCCCCCGGAAAGUAUUAUGUUACGCCGUUCGGAUCUGCAC: -0.295
GUCCUGUGCUACACAUCGUAUGUACCGAAUCGGGGAAAGGGGUGGGGAAAAAAAGGGGAAAGUAUUAUGUUACGCCGUUCGGAUCUGCAC: 0.784
UCCUCAAGUCCUGUGCUACACAUCGUAUGUACCGAAUCGGUGGAAAGGUGGAAAGUAUUAUGUUACGCCGUUCGGAUCUGCACUUCCAGC: -0.112
CACAGACAACACGCGCCCACACAGACACAGAGGGAAGGGGUUGGGAUGGGGACAGGGUGCACAGCAGGGCGGGGUAGGACCCCAGCCCCU: 0.175
UGGCCCUGGUGGCAUGAGGGGAGGAAGAGGUGGCCUCAUGGAUCGUGGUGGUCCCGGUGGAAUGUUCAGAGGUGGCCGUGGUGGAGACAG: 0.861
UGGGAGGUGGAUUUUGUUUAUUUUUUUAGCUCAUUUCCAGGGGUGGGAAUUUUUUUUUAAUGUGUGUCAUGAAUAAAGUUGUUUUUGAAA: 2.1
UGGCCGUGGUGGCAUGCGGGGAGGAAGAGGUGGCCUCAUGGAUCGUGGUGGUCCCGGUGGAAUGUUCAGAGGUGGCCGUGGUGGAGACAG: 0.611

Series 4
Target: RING finger protein unkempt homolog, zinc fingers 1-6, GST-SBP tag (UNK, Homo sapiens, UniProt Q9C0B0, residues 30-357)
UniProt Q9C0B0, sequence (30-357, looked up): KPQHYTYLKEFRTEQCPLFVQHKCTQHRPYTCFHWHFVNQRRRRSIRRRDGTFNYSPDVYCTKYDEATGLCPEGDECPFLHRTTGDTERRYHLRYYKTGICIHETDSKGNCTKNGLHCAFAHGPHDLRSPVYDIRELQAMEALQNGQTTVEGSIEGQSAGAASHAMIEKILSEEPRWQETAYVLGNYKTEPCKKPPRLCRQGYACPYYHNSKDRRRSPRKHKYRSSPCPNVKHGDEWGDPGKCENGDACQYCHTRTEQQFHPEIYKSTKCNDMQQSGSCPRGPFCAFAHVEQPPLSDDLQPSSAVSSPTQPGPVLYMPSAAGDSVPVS
Method: RNA Bind-n-Seq
Form: RNA
Sample: in vitro
Tested at: not given
Setting: RNA with constant flanks, ends assumed
Reference: input RNA pool
Direction: higher = stronger binding
Quantity: bound/input enrichment
Shared flanks, not repeated: GGGAGUUCUACAGUCCGACGAUC … CAACAGAGGAUUGAGCAUCA
AAUUCAUAAUCACGCUAAUUGUAAUCUGGAGACGUGUAACAUUGUGUAGCCUUUUGUAUAAACCGACAGAUAGAAAUGGUCCGAUUAGUUUCCUUUUUAAUAUGCUUAAAAUAAGCAGGU: 4.73 ratio
GGCAGUGGCUGGGGAGGUGAGGGAGGGGGGGCAUUCGCUUUUGGGGGCACCUCAGGUGCCCCGGUUUUCCUUUAGGUUUGUUCUAUCCGAGACGCGGGACUCCCGGGGCCCGGCUCAAGU: 6 ratio
UCAUCUACGUUUGCAAUUCCCCAGGAAUUAGAAAAAAGUGUACAGAUGUUUGAAUUAUUUUACCGCCAACAUUUCAGUGGAAGGAAACUUACAUGGUUACAUUAUCUGUGUACAGGUGAA: 0.563 ratio
GAGAAAUACUUCCAAUUCCAAGAAGAGGGCAAAGAAGGAGAGAACAGAGCAGUUAUCCAUUACCGGGAUGAUGAGACCAUGUAUGUGGAAUCUAAGAAAGACAGAGUCACAGUAGUCUUC: 0.382 ratio
GGUCAGGCUAAUAAGCCUGAUGAAACUAGUAAAACUAGUAUUCUGGCUGUAUCAGAUGUAUCCCGCAGUAAACCAAGCAUCAAGGCUGUUAUAGUCUCUUCUCCUAAGGCAAAAGCUACA: 0.237 ratio
GGGUCCUGCAGGAAGCAGUGUUCUCCUUGGUGCCCGGGGAAACCUCCCAUGUCUGUUUCCUACCGGCCACUUGUUCCUCACGACCAUCCGGCCUGACAAUCAGAAUUCCUAUCUCAUUGC: 0.191 ratio
GAUACUGGUAAACUGACUGGCGGAUCAUUUACCAUGAAAUACCAUGAUAUGCCUGACGUUACCGAUUUCCUAGUCUUGAGACAACAAUUUGAUGAUGCAAAAUACAGGCGAUGGAAUAUA: 0.282 ratio
AUUCUGUGGGCCACUCUCCCCAACGUUCUGACACUUCUGCAGUCUGAUCAGUGGCGAUGCCCGAUUAUAAUUUCAAACUGUGAAGAAUAAUGGUCUUGUCAUUUGCUCAAUGUGGGGUUA: 0.143 ratio

Some of these lines once more (series 3):
CAAGUCCUGUGCUACACAUCGUAUGUACCGAAUCGGGUUUUUGGGUGGGUUUGGGAAAGUAUUAUGUUACGCCGUUCGGAUCUGCACUUC: 0.528
GUCCUGUGCUACACAUCGUAUGUACCGAAUCGGGGAAAGGGGUGGGGAAAAAAAGGGGAAAGUAUUAUGUUACGCCGUUCGGAUCUGCAC: 0.784
UGGCCCUGGUGGCAUGAGGGGAGGAAGAGGUGGCCUCAUGGAUCGUGGUGGUCCCGGUGGAAUGUUCAGAGGUGGCCGUGGUGGAGACAG: 0.861
CACAGACAACACGCGCCCACACAGACACAGAGGGAAGGGGUUGGGAUGGGGACAGGGUGCACAGCAGGGCGGGGUAGGACCCCAGCCCCU: 0.175
